Experimental data pooled from the literature.
Lines come from different studies, so protocols differ.
Technique: steady-state kinetics
B1: enzyme (Pseudomonas aeruginosa, UniProt Q9HWT7); chain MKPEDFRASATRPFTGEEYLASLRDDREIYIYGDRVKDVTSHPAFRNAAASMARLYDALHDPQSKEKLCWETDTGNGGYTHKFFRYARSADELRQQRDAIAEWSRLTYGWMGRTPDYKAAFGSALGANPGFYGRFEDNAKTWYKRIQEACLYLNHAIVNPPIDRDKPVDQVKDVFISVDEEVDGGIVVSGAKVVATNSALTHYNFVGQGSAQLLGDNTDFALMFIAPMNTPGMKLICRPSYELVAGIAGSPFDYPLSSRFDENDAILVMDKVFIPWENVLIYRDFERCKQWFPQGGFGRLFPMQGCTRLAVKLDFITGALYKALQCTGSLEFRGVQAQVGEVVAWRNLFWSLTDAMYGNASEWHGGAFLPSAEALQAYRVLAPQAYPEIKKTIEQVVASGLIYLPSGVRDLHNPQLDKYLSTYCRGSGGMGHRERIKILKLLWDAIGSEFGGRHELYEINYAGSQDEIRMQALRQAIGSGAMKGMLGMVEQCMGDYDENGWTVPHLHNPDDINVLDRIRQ
B2: enzyme (Manihot esculenta, UniProt Q41172); chain TDDDDDNIPDDFSRKYFPDDFIFGTATSAYQIEGEATAKGRAPSVWDIFSKETPDRILDGSNGDVAVDFYNRYIQDIKNVKKMGFNAFRMSISWSRVIPSGRRREGVNEEGIQFYNDVINEIISNGLEPFVTIFHWDTPQALQDKYGGFLSRDIVYDYLQYADLLFERFGDRVKPWMTFNEPSAYVGFAHDDGVFAPGRCSSWVNRQCLAGDSATEPYIVAHNLLLSHAAAVHQYRKYYQGTQKGKIGITLFTFWYEPLSDSKVDVQAAKTALDFMFGLWMDPMTYGRYPRTMVDLAGDKLIGFTDEESQLLRGSYDFVGLQYYTAYYAEPIPPVDPKFRRYKTDSGVNATPYDLNGNLIGPQAYSSWFYIFPKGIRHFLNYTKDTYNDPVIYVTENGVDNYNNESQPIEEALQDDFRISYYKKHMWNALGSLKNYGVKLKGYFAWSYLDNFEWNIGYTSRFGLYYVDYKNNLTRYPKKSAHWFTKFLNISVNANNIYELTSKDSRKVGKFYVM
B3: GcL (Parageobacillus, UniProt A0A023DFE8); chain MANVIKARPKLYVMDNGRMRMDKNWMIAMHNPATIHNPNAQTEFVEFPIYTVLIDHPEGKILFDTSCNPNSMGPQGRWAESTQQMFPWTATEECYLHNRLEQLKVRPEDIRYVVASHLHLDHAGCLEMFTNATIIVHEDEFNGALQCYARNQKEGAYIWADIDAWIKNNLQWRTVKRHEDNILLAEGVKVLNFGSGHAWGMLGLHVELPETGGIILASDAIYTAESYGPPIKPPGIIYDSLGYMNTVERIRRIAQETKSQVWFGHDAEQFKKFRKSTEGYYE
B4: enzyme (Arabidopsis thaliana, UniProt Q9ZPI1); chain MEGAADQTTKALSELAMDSSTTLNAAESSAGDGAGPRSKNALKKEQKMKQKEEEKRRKDEEKAEKAKQAPKASSQKAVAADDEEMDATQYYENRLKYLAAEKAKGENPYPHKFAVSMSIPKYIETYGSLNNGDHVENAEESLAGRIMSKRSSSSKLFFYDLHGDDFKVQVMADASKSGLDEAEFLKLHSNAKRGDIVGVIGFPGKTKRGELSIFPRSFILLSHCLHMMPRKADNVNAKKPEIWVPGQTRNPEAYVLKDQESRYRQRHLDMILNVEVRQIFRTRAKIISYVRRFLDNKNFLEVETPMMNMIAGGAAARPFVTHHNDLDMRLYMRIAPELYLKQLIVGGLERVYEIGKQFRNEGIDLTHNPEFTTCEFYMAFADYNDLMEMTEVMLSGMVKELTGGYKIKYNANGYDKDPIEIDFTPPFRRIEMIGELEKVAKLNIPKDLASEEANKYLIDACARFDVKCPPPQTTARLLDKLVGEFLEPTCVNPTFIINQPEIMSPLAKWHRSKSGLTERFELFINKHELCNAYTELNDPVVQRQRFADQLKDRQSGDDEAMALDETFCNALEYGLAPTGGWGLGIDRLSMLLTDSLNIKEVLFFPAMRPPQEESAAAQAPLTEEKK
B5: enzyme (UniProt I4BZH5); chain MIWPKATDILLAAQFLREKVRHTPIEKSLDLSDIAGGSVYLKWENLQPCGSFKIRGALNKMFHMSEEERERGVVTASSGNHAQGVAIAARMLNVKAVIFVPGVCPANKQRAIKRLGGDVVDLRVVGHLYDDAEQAARQLARSEGLTYVSSYEDHHIICGAGTVGLEMLLDVPDLDMLVVPAGGGGLISGIATIAKALSPGIRIVGVQSVASMPWVVSWQSGRVIDVTYSDSLADGLTGSIPQSLLDLARVRVDDFMAVTEDDIAKAIAFLHRRHHQIVEGAGAVGVAALLSGRVSAKGRRVGVVISGGNIDHEVLMNILEKVTL
B6: ADSL R303C (Homo sapiens, UniProt P30566); chain MAAGGDHGSPDSYRSPLASRYASPEMCFVFSDRYKFRTWRQLWLWLAEAEQTLGLPITDEQIQEMKSNLENIDFKMAAEEEKRLRHDVMAHVHTFGHCCPKAAGIIHLGATSCYVGDNTDLIILRNALDLLLPKLARVISRLADFAKERASLPTLGFTHFQPAQLTTVGKRCCLWIQDLCMDLQNLKRVRDDLRFRGVKGTTGTQASFLQLFEGDDHKVEQLDKMVTEKAGFKRAFIITGQTYTRKVDIEVLSVLASLGASVHKICTDIRLLANLKEMEEPFEKQQIGSSAMPYKRNPMRSECCCSLARHLMTLVMDPLQTASVQWFERTLDDSANRRICLAEAFLTADTILNTLQNISEGLVVYPKVIERRIRQELPFMATENIIMAMVKAGGSRQDCHEKIRVLSQQAASVVKQEGGDNDLIERIQVDAYFSPIHSQLDHLLDPSSFTGRASQQVQRFLEEEVYPLLKPYESVMKVKAELCL
B7: enzyme (Cyanidioschyzon merolae, UniProt M1V8C6); chain EPPRDTAATSSHEFTHHVTEKAKDWSGSGTWLQSYIEQGPLAAAIPPQYAPSRSLSRWQAWGSYLFKELGLDGTLERDQNRIFRFYLPVFAWSLHVVNRLQRDERRKQHGVIIGLQCPQGGGKTTLTAALQKLFDLEQRRCVSLSIDDFYLTRREQEALARAFPENPLLGSRGNPGTHDISLALQVLNEVVAAPYPGEHAEVAVPRYDKSAFQGLGDRAPPEQWPLVSRPVDVVFLEGWCLGFRPLALHERPATMDPITLRHLMQVDRFLAEDFSRLYPLLDAFIVIALDGPKLSESLRIVYQWRLEAEQQMRAAGRPAMTDEQVYAFVDKFMPAYKAYLGDLYGGPPLTGNLSRELRVGIDETRSPTRLNPHSELVP
B8: enzyme A477T (Populus trichocarpa, UniProt A0A2K1ZZ60); chain ITRQYTFNITHKNFTRLCHTRSLVTVNGQFPGPRLVAREGDQVLVKVVNHVAENITIHWHGVRQLTSGWADGPAYVTQCPIQTGQAYTYNFTITGQRGTLLWHAHISWLRSSLYGPIIILPKLNESYPFKKPYKEIPILFGEWFNVDPEAVIAQALQTGAGPNVSDAYTINGLPGPLYNCSAKDTYKLKVKPGKTYLLRLINAALNDELFFSIANHTLTVVEADAVYVKPFEADTLLISPGQTTNVLLKTKPHLPNATFYMFAGPYFSGMGSFDNSTTAGVLVYKHPSSNNHLKKLPTLKPTLPPINATGFVANFTKKFRSLANAKFPANVPQTVDRKFFFTVGLGTNPCPKNTTCQGPNNNTKFAASINNVSFVLPSVALLQSYFFGQSNGVFTSDFPQNPTIPFNYTGTPPNNTMVSNGTKAVVLTFNTSVELVMQGTSIVTAESHPLHLHGFNFFVVGQGFGNYDPNKDPSNFNLVDPMERNTAGVPAGGWIAIRFLADNPGVWFMHCHLDVHTSWGLRMAWIVLDGPQPNQKIPPPPSDLPKC
B9: enzyme (Nicotiana tabacum, UniProt A0A1S3XCJ5); chain MLPQLSNSSGSGYSWMQDNSASCGNFSRNGRKQGPLNSVAPTERAQISSVDDLYDFICSGPLINKIGLTPEKVAESIDKWIEYGFRLCRLFQLNQLALNEPQKIRLYHYYIPVFLWCEQEISQHSSKFKDNEEIPPLVIGFSAPQGCGKTTLVFALEYLFKITGRKAATLSIDDFYLTAEEQAKLRENNPGNLLLEFRGNAGSHDLSLSVETLAELSKVTKEGVKMKLPRYDKSAYNGRGDRADPSTWPEVEGPLTVILFEGWMLGFKPLPPEAVKAVDPQLETVNKNLEAYYDAWYKYVKSWIIIKIHDPSYVYQWRLQAEIAMRADGNPGMSDEEVRDFVSRYLPAYKAYLPTLYSEGPTGADPEHVLLVEIDEGRNPILGS
B10: bglA S39T (Acetivibrio thermocellus, UniProt P26208); chain MSKITFPKDFIWGSATAAYQIEGAYNEDGKGESIWDRFTHTPGNIADGHTGDVACDHYHRYEEDIKIMKEIGIKSYRFSISWPRIFPEGTGKLNQKGLDFYKRLTNLLLENGIMPAITLYHWDLPQKLQDKGGWKNRDTTDYFTEYSEVIFKNLGDIVPIWFTHNEPGVVSLLGHFLGIHAPGIKDLRTSLEVSHNLLLSHGKAVKLFREMNIDAQIGIALNLSYHYPASEKAEDIEAAELSFSLAGRWYLDPVLKGRYPENALKLYKKKGIELSFPEDDLKLISQPIDFIAFNNYSSEFIKYDPSSESGFSPANSILEKFEKTDMGWIIYPEGLYDLLMLLDRDYGKPNIVISENGAAFKDEIGSNGKIEDTKRIQYLKDYLTQAHRAIQDGVNLKAYYLWSLLDNFEWAYGYNKRFGIVHVNFDTLERKIKDSGYWYKEVIKNNGF
B11: enzyme (Enterococcus faecalis, UniProt Q838J7); chain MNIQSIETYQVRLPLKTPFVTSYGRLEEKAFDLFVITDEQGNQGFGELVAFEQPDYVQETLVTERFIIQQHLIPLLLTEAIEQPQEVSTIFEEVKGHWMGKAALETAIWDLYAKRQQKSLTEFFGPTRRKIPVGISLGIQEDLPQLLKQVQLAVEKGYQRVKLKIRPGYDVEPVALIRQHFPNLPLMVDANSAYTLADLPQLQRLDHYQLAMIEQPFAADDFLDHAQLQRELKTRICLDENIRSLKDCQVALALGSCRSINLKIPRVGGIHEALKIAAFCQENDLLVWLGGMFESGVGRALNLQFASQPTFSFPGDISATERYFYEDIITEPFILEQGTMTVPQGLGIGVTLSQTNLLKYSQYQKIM

| Molecule | substrate | setting | Km [µM] |
| --- | --- | --- | --- |
| B1 (enzyme) | O=C(O)/C=C/c1ccc(O)cc1 | pH 8, 37 °C, added: NADH 1 mM, FAD 10 µM, HpaC | 264 |
| fosA (Pseudomonas aeruginosa, UniProt Q9I4K6) | C[C@@H]1O[C@@H]1P(=O)(O)O | – | 200 |
| enzyme (Pseudideonella sakaiensis, UniProt A0A0K8P6T7) | O=C(OCCO)c1ccc(C(=O)OCCO)cc1 | 30 °C | 8100 |
| Cj1438c (Campylobacter jejuni, UniProt Q0P8H6) | NCCOP(=O)(O)O | pH 8, 25 °C, apparent | 260 |
| rCR L137V/L34A (Lodderomyces parapsilosis) | CC(=O)c1ccccc1 | pH 7, 30 °C, added: NADH 0.5 mM | 790 |
| B2 (enzyme) | CC(C)(C#N)O[C@@H]1O[C@H](CO)[C@@H](O)[C@H](O)[C@H]1O | pH 6, 30 °C, not purified | 6630 |
| dxs (Pseudomonas aeruginosa, UniProt Q9KGU7) | O=C[C@H](O)COP(=O)(O)O | pH 8, 25 °C, apparent | 5.8 |
| ALS1 S627I/W548L (Oryza sativa) | CC(=O)C(=O)O | pH 7.5, 37 °C, added: FAD, MgCl2, TPP | 96000 |
| fcl (Campylobacter jejuni, UniProt Q0P8I6) | Nc1nc2c(ncn2[C@@H]2O[C@H](COP(=O)(O)OP(=O)(O)O[C@H]3O[C@@H](CCO)C(=O)[C@@H](O)[C@@H]3O)[C@@H](O)[C@H]2O)c(=O)[nH]1 | pH 7.5, 25 °C, apparent | 93 |
| pdc E473D (Zymomonas mobilis) | CC(=O)C(=O)O | pH 6, 30 °C | 150 |
| enzyme (Klebsiella pneumoniae, UniProt A6TH53) | Nc1ncnc2c1ncn2[C@@H]1O[C@H](COP(=O)(O)OP(=O)(O)OP(=O)(O)O)[C@@H](O)[C@H]1O | pH 7.4, 24 °C, apparent | 25.6 |
| B3 (GcL) | CCCC(=O)N[C@H]1CCOC1=O | pH 8.3, added: CoCl2 0.2 mM | 581 |
| B4 (enzyme) | NCCCC[C@H](N)C(=O)O | pH 7.8, 37 °C | 24.3 |
| ALS1 Q169N/V170Q (Oryza sativa) | CC(=O)C(=O)O | pH 7.5, 37 °C, added: FAD, MgCl2, TPP | 20000 |
| enzyme (Thermococcus kodakarensis, UniProt Q5JHM5) | N=C(N)NCCC[C@H](N)C(=O)O | pH 7.5, 80 °C | 2300 |
| B5 (enzyme) | N=C(N)NCCC[C@H](N)C(=O)O | pH 8, 30 °C | 322 |
| B6 (ADSL R303C) | Nc1c(C(=O)N[C@@H](CC(=O)O)C(=O)O)ncn1[C@@H]1O[C@H](COP(=O)(O)O)[C@@H](O)[C@H]1O | pH 7.4, 25 °C | 7.8 |
| B7 (enzyme) | Nc1ncnc2c1ncn2[C@@H]1O[C@H](COP(=O)(O)OP(=O)(O)OP(=O)(O)O)[C@@H](O)[C@H]1O | pH 7.8, 30 °C | 46 |
| B8 (enzyme A477T) | COc1cc(/C=C/CO)cc(OC)c1O | 27 °C | 135 |
| B9 (enzyme) | Nc1ncnc2c1ncn2[C@@H]1O[C@H](COP(=O)(O)OP(=O)(O)OP(=O)(O)O)[C@@H](O)[C@H]1O | pH 7.8, 30 °C | 810 |
| B10 (bglA S39T) | O=[N+]([O-])c1ccc(O[C@@H]2O[C@H](CO)[C@@H](O)[C@H](O)[C@H]2O)cc1 | pH 5.5, 60 °C | 8020 |
| rCR L137V (Lodderomyces parapsilosis) | CC(=O)c1ccc(Cl)cc1 | pH 7, 30 °C, added: NADH 0.5 mM | 360 |
| nfsB K14R (Escherichia coli) | NC(=O)N/N=C/c1ccc([N+](=O)[O-])o1 | pH 7, 37 °C | 40 |
| B11 (enzyme) | O=C(O)CCC(=O)C1=CC=C[C@@H](O)[C@@H]1C(=O)O | pH 8, 25 °C | 21 |
